Assay results pooled from the literature.
Lines come from different studies, so protocols differ. Several values in a cell are separate wells, animals, samples, runs or records. ± gives the spread as reported.

Structure (SMILES)	assay	test system	setting	measurement	value
O=S(=O)(Nc1ccccc1)c1ccc(NC(=S)Nc2ccccc2)cc1		female mouse, blood	oral, 5 mg/kg daily, 14 days	chloride level	111 mmol/L
O=C(O)CCCOc1ccc(F)cc1-c1cc(-c2ccccc2C(F)(F)F)n(-c2ccccc2)n1		male Crl:CD(SD) rats, prostate	intravenous, 25 µg/kg, 14 d	organ weight	0.48 ± 0.14 g
COc1ccnc(C(=O)N[C@H]2COC(=O)[C@H](Cc3ccccc3)[C@@H](OC(=O)C(C)C)[C@H](C)OC2=O)c1OCOC(=O)C(C)C	aerobic dark soil incubation	silt loam soil	20 °C, persistence endpoint	DT50	1.9 days
C=CC(=O)Nc1cc(Nc2nccc(Nc3cc(Cl)c(F)cc3C(C)(C)O)n2)c(OC)cc1N1CC[C@@H](N(C)C)C1	treatment-emergent adverse events	human	oral, 200 mg, phase I clinical trial	incidence of blood creatinine increased	6.3%
C[C@]1(CO)Cc2ncn(-c3ccc(C#N)c(Cl)c3)c2C(=O)O1		human, plasma	80 mg once daily, fasted	tmax at steady state	1 h
O=C1Nc2cc3[nH]nc(-c4ccncc4)c3cc2CN1Cc1ccccc1	CTCAE v4.03	advanced solid tumour patients	intravenous, 1.8 mg/kg, schedules 1/2	patients with increased GGT	0%
CCN(CCO)CCCC(C)Nc1ccnc2cc(Cl)ccc12 (centres unmarked)	item: Vomiting grade 2	newly diagnosed glioblastoma patients	oral, 800 mg/dose, with radiotherapy and temozolomide	patients with adverse event	33%
C=CC(=O)N1CC[C@H](n2nc(C#Cc3cc(OC)cc(OC)c3)c3c(N)ncnc32)C1		human patients	oral, dose not given, QD regimen, adverse drug reaction, together with: ferric citrate hydrate	hyponatremia incidence, grade ≥3	0%
Cn1c(-c2ccc(C(N)=O)cc2F)nnc1C(C)(C)Oc1c(F)cc(Cl)cc1F		human	oral, 6 mg, single ascending dose	gastrointestinal disorder TEAE	16.7%
c1ccc2c(c1)ccc1c3ccccc3ccc21		pooled human liver microsomes	2.5 µM, pH 7.4	metabolism rate	11.5 pmol/min/mg
c1csc(CNc2cc[nH]n2)c1	micronucleus	CD-1 mouse Hsd:ICR(CD-1), female, bone marrow	oral, 500 mg/kg/day, 3 days	micronucleated PCE per 1000 PCE	0.7
CC(C)[C@@H]1NC(=O)CNC(=O)[C@H](CC(N)=O)NC(=O)[C@H](CCCNC(=N)N)NC(=O)[C@H](Cc2ccc(O)cc2)NC(=O)[C@H](C(C)C)NC(=O)[C@@H](NC(=O)[C@@H](NC(=O)[C@H](CC(N)=O)NC(=O)[C@H](Cc2c[nH]c3ccccc23)NC(=O)[C@H](C)NC(=O)[C@H](Cc2ccccc2)NC(=O)CN)C(C)C)CSSC[C@@H](C(=O)N[C@@H](Cc2cnc[nH]2)C(=O)N[C@@H](CCCNC(=N)N)C(=O)N[C@@H](CCCNC(=N)N)C(=O)N[C@@H](C)C(=O)N[C@@H](CC(N)=O)C(N)=O)NC(=O)[C@H](C(C)C)NC(=O)[C@H](CCCNC(=N)N)NC1=O		ICR mice, blood	intraperitoneal, 10 mg/kg, day 5	mean corpuscular haemoglobin	13.5 ± 0.26 pg
COC[C@@H](CC(C)C)NC(=O)c1ccc(C)c(C)c1		Hsd:ICR (CD-1) mouse, female, bone marrow	oral, 1352 mg/kg, 48 h	micronucleated PCE per 1000 PCE	0.5
O=C(Nc1ccccc1)C1CCN(C(=O)Oc2cccnc2)CC1		healthy women	oral, 100 mg, 9 days	Psychiatric disorders adverse events	23.1%
COc1ccc([C@@H](O)c2cc(-c3ncnc4cc(N5CCOCC5)ccc34)c(F)cc2Cl)nn1		patients, advanced solid tumours	oral, 200 mg twice daily, treatment-emergent, together with: avelumab	stomatitis incidence	10%
CC(=O)c1c(C)c2cnc(Nc3ccc(C4CCN(CCS(C)(=O)=O)CC4)cn3)nc2n(C2CCCC2)c1=O		human, dose-escalation trial, plasma	oral, 150 mg twice daily, day 1, single dose	clearance	1540 mL/min
Nc1nc2cc(-c3ccc4ncc(C(=O)N5CCOCC5)n4c3)ccc2o1	item: Hyperglycemia	advanced solid tumour patients	dose not given, all grades, all doses	patients with adverse event	37%
CCCCCCCCCCCCCCCC(=O)N[C@@H](CCC(=O)NCCCC[C@H](NC(=O)[C@H](CC(=O)O)NC(=O)[C@H](CO)NC(=O)[C@@H](NC(=O)[C@H](Cc1ccccc1)NC(=O)[C@@H](NC(=O)CNC(=O)[C@H](CCC(N)=O)NC(=O)[C@H](CO)NC(=O)[C@@H](N)Cc1c[nH]cn1)[C@@H](C)O)[C@@H](C)O)C(=O)N[C@@H](CO)C(=O)N[C@@H](CCC(=O)O)C(=O)N[C@@H](Cc1ccc(O)cc1)C(=O)N[C@@H](CC(C)C)C(=O)N[C@@H](CC(=O)O)C(=O)N[C@@H](CO)C(=O)N[C@@H](CCC(=O)O)C(=O)N[C@@H](CCCNC(=N)N)C(=O)N[C@@H](C)C(=O)N[C@@H](CCCNC(=N)N)C(=O)N[C@@H](CC(=O)O)C(=O)N[C@@H](Cc1ccccc1)C(=O)N[C@H](C(=O)N[C@@H](C)C(=O)N[C@@H](Cc1c[nH]c2ccccc12)C(=O)N[C@@H](CC(C)C)C(=O)N[C@@H](CCC(=O)O)C(=O)N[C@@H](C)C(=O)NCC(=O)NCC(=O)O)C(C)C)C(=O)O	item: Dyspepsia	humans CrCl 30 to 45 mL/min	subcutaneous, 100 µg single dose	treatment-related adverse events	0%
COc1ccc(C[C@@H]2NC(=O)[C@H]([C@@H](C)O)NC(=O)[C@@H]3[C@@H]4CCN3C(=O)[C@@H]3Cc5cn(c6ccc(F)cc56)CCCCCCN(Cc5ccc(cc5)CCNC(=O)[C@]5(C)CCCN5C2=O)C(=O)CCC(=O)N[C@@H](C)C(=O)N[C@H](CNC(=O)CCCCC[N+](C)(C)C)C(=O)N[C@@H](Cc2cccc(c2)CNC(=O)CO4)C(=O)N3)cc1	item: Pharyngitis	humans	concentration not given, Study-001	participants with adverse event	0%

Structure (SMILES)	assay	test system	setting	measurement	value
Cn1nc(NS(C)(=O)=O)c2c(Cl)ccc(-n3c([C@H](Cc4cc(F)cc(F)c4)NC(=O)Cn4nc(C(F)F)c5c4C(F)(F)[C@@H]4C[C@H]54)nc4nc(OCCC(F)(F)F)ccc4c3=O)c21		human	dose not given	participants with grade 3 LDL-C increase	6%
CCS(=O)(=O)Nc1ccc(Oc2ccc(F)cc2F)c(-c2cn(C)c(=O)c3[nH]ccc23)c1	fatal Escherichia sepsis	human, relapsed/refractory AML	oral, dose not given	treatment-emergent adverse events	0%
COc1ccc2nc3cc(Cl)ccc3c(Nc3cc(CN4CCCC4)c(O)c(CN4CCCC4)c3)c2n1		mouse, blood	intraperitoneal, 57 mg/kg	mean platelet volume	6.1 fL
O=c1nc(NO)ccn1[C@@H]1O[C@H](CO)[C@@H](O)[C@H]1O		rat fetus dialysate	1000 ng/mL, more than 4 weeks, -20 °C, high concentration, together with: molnupiravir 250 ng/mL	long-term stability	99.7 ± 2.29%
COc1ccc(-c2c(-c3ccc(C#N)c(F)c3)nc(N3CCC(N)CC3)n(C)c2=O)cc1F	item: Metastasis	human patients	oral, dose not given, dose escalation, NG	serious adverse event incidence	2%
CC(C)C[C@H](NC(=O)[C@H](CCCCN)NC(=O)OCC1c2ccccc2-c2ccccc21)C(=O)N[C@H](C(=O)N[C@@H](Cc1ccccc1)C(=O)N[C@@H](Cc1ccccc1)C(=O)N[C@@H](CCCCN)C(=O)NCC(=O)N[C@@H](Cc1ccccc1)C(=O)N[C@@H](C)C(=O)N[C@@H](Cc1c[nH]c2ccccc12)C(=O)N[C@@H](CC(N)=O)C(=O)N[C@H](C(=O)N[C@H]1CSSC[C@@H](C(=O)N[C@@H](Cc2c[nH]cn2)C(=O)N[C@@H](CCCNC(=N)N)C(=O)N[C@@H](CCCNC(=N)N)C(=O)N[C@@H](C)C(=O)N[C@@H](CC(N)=O)C(N)=O)NC(=O)[C@H](C(C)C)NC(=O)[C@H](CCCNC(=N)N)NC(=O)[C@H](C(C)C)NC(=O)CNC(=O)[C@H](CC(N)=O)NC(=O)[C@H](CCCNC(=N)N)NC(=O)[C@H](Cc2ccc(O)cc2)NC(=O)[C@H](C(C)C)NC1=O)C(C)C)C(C)C	HPLC	mouse mammary gland homogenate	2560 µM, 12.00 h, 37 °C, 50 mg/mL tissue	remaining peptide	61.5% and 58.6% and 56.7%
C[C@@H]1OC(=O)NN=C1c1ccc(-c2ccc(F)cc2)c(C(F)(F)F)c1	phase I trial, item: Diarrhoea worst grade 1	human patients	5 mg once daily	patients with adverse event	0%
CC1(C)[C@H](C(=O)OCc2cccc(Oc3ccccc3)c2)[C@@H]1C=C(Cl)Cl	item: CYP3A5	human, age 6 months, recombinant human CYP3A5	0.1 µM	enzyme contribution to clearance	0.14%
CN1CC[C@@H](c2c(O)cc(O)c3c(=O)cc(-c4ccc(C(F)(F)F)cc4Cl)oc23)[C@@H]1CO	item: Constipation	relapsed or refractory haematological malignancies	oral, dose not given, grade ≥3	adverse event incidence	0%
[O-][S+]1CCc2nc(N3CCC(c4ncc(Cl)cn4)CC3)nc(NC3(CO)CCC3)c21 (centres unmarked)		healthy male subjects	48 mg single dose, 12.1 (unit not given), after last treatment	haemoglobin	134 g/L
COc1cc2c(Oc3ccc4[nH]c(C)cc4c3F)ccnc2cc1OCC1(N)CC1		paediatric recurrent refractory sarcoma	12 mg	grade 3 Neutropenia	18.2%
CCOc1ncc(C)c2c1[C@H](c1ccc(C#N)cc1OC)C(C(N)=O)=C(C)N2	population PK model	patients	oral, dose not given	central volume (Vc/F)	113 L
C[C@@H](O)[C@@H]1NC(=O)CNC(=O)[C@H](Cc2c[nH]cn2)NC(=O)[C@H](Cc2c[nH]c3ccccc23)NC(=O)[C@H](CC(N)=O)NC(=O)CNC(=O)C[C@@H](C(=O)N[C@@H](Cc2c[nH]c3ccccc23)C(=O)N[C@@H](Cc2ccccc2)C(=O)N[C@@H](Cc2ccccc2)C(=O)N[C@@H](CC(N)=O)C(=O)N[C@@H](Cc2ccc(O)cc2)C(=O)N[C@@H](Cc2ccc(O)cc2)C(=O)N[C@@H](Cc2c[nH]c3ccccc23)C(=O)O)NC(=O)[C@@H]2CCCN2C(=O)[C@H](CO)NC1=O	rapid equilibrium dialysis	mouse plasma	20 µM, time not given	recovery	98.8%
C[C@@H]1NC(=O)[C@H](CCCCNC(=O)CO/N=C/C(=O)NCCCC[C@@H]2NC(=O)[C@@H](Cc3ccccc3)NC(=O)[C@H](CC(=O)O)NC(=O)CNC(=O)[C@H](CCCNC(=N)N)NC2=O)NC(=O)CNC(=O)[C@@H]2CCCN2C(=O)[C@H](CCCCNC(=O)CO/N=C/C(=O)NCCCC[C@@H]2NC(=O)[C@@H](Cc3ccccc3)NC(=O)[C@H](CC(=O)O)NC(=O)CNC(=O)[C@H](CCCNC(=N)N)NC2=O)NC(=O)[C@H](CCCCNC(=O)[C@H](CCCCN)NC(=O)[C@H](Cc2ccccc2)NC(=O)CNC(=O)CN2CCCNCCNCCCNCC2)NC(=O)[C@H](CCCCNC(=O)CO/N=C/C(=O)NCCCC[C@@H]2NC(=O)[C@@H](Cc3ccccc3)NC(=O)[C@H](CC(=O)O)NC(=O)CNC(=O)[C@H](CCCNC(=N)N)NC2=O)NC(=O)CNC(=O)[C@@H]2CCCN2C(=O)[C@H](CCCCNC(=O)CO/N=C/C(=O)NCCCC[C@@H]2NC(=O)[C@@H](Cc3ccccc3)NC(=O)[C@H](CC(=O)O)NC(=O)CNC(=O)[C@H](CCCNC(=N)N)NC2=O)NC1=O [copper-64 labelled]		normal mice, liver	intravenous, 0.74 MBq, 3 h post-injection	tissue uptake	38.1 ± 3.54 %ID/g
CO[C@H]1C[C@@H]2CC[C@@H](C)[C@@](O)(O2)C(=O)C(=O)N2CCCC[C@H]2C(=O)O[C@H]([C@H](C)C[C@@H]2CC[C@@H](OC(=O)NCCOCCOCCOCCOCCOCCOCCOCCOCCC(=O)N3CCc4cc(Cn5nc(-c6ccc7oc(N)nc7c6)c6c(N)ncnc65)ccc4C3)[C@H](OC)C2)C[C@@H](O)[C@H](C)/C=C(\C)[C@@H](O)[C@@H](OC)C(=O)[C@H](C)C[C@H](C)/C=C/C=C/C=C/1C	phase 1 dose escalation	advanced solid tumour patients	intravenous, 10 mg weekly, grade ≥3	any SAE incidence	25%
CCC[C@@](N)(CO)CCc1ccc(OCCCCCC(C)C)cc1		hound dogs, male	intravenous, 1.0 mg/kg, geometric mean	clearance	10.8 mL/min/kg
O=[N+]([O-])c1ccc2c(c1)S(=O)(=O)C=C2		male C57BL/6 mice, blood	intraperitoneal, 20 mg/kg, day 8, group average	mean platelet volume	5.33 fL
CC(C)(c1ccc(O)cc1)c1ccc(O)cc1	ultrafiltration	cow milk whey	20 nM nominal in whole milk	final permeate concentration	0.93 nM
C[C@@H]1COCCN1c1cc(C2([S@](C)(=N)=O)CC2)nc(-c2cc[nH]c3nccc2-3)n1		patients, advanced solid tumours	oral, 40 mg twice daily, 7 days, together with: carboplatin	discontinuation due to adverse event	1 % patients
